Measured values collected from several papers.
Several values in a cell are separate wells, animals, samples, runs or records.

O=C(NCc1ccc(OC(F)(F)F)cc1)[C@H]1CCCN(c2ncnc3[nH]c(-c4cc(F)c(F)c(F)c4)cc23)C1 — inhibition (NCI-H2228; cell growth or viability, MTT; 5 µg/mL, 72 h): 55.3%
O=C(C[Se]C(=O)c1cc2ccccc2s1)Nc1cccc(C(F)(F)F)c1 — mean growth percent (NCI60 renal subpanel; cell growth; 10 µM, 48 h, one-dose): -78.5%
CCN(CC)CC(=O)Nc1cccc(-n2cc(-c3ccc4ccc(-c5cn(-c6cccc(NC(=O)CN(CC)CC)c6)nn5)cc4c3)nn2)c1 — fold regulation (RCC4; PCR angiogenesis array, item: PGF; 5 x IC50, 4 h, normoxia; baseline: untreated): -2.23
CNS(=O)(=O)Nc1nccc(Cc2c(C)c3ccc(Oc4ncccc4F)cc3oc2=O)c1F — IC50 (A-172; cell viability, CellTiter-Glo; 7 days): 212 nM
COc1ccc(NC(=O)c2ccc3[nH]c(-c4ccc(N(C)C)cc4)nc3c2)cn1 — reporter activity (HCT-116; item: CXCL1 luciferase reporter; concentration not given, unit not given; baseline: DMSO): 4.67 and 3.15 and 3.29
CN1CCCNC(=O)c2cccc(c2)C(=O)NCCCN(C)CCCNc2cccc3c2C(=O)c2cccc(c2C3=O)NCCC1 — log2 fold change (SAS; RNA-Seq, item: TBC1D30 mRNA; 1 µM, 6 h; baseline: untreated cells): 1.16
COCCCCCNc1nc(NCCCCCCN(C)C)c2cc(NC(=O)/C=C/CN(C)C)ccc2n1 — viability (MCF7; CellTiter-Glo; 0.09766 µM, 72 h, unit not given; baseline: DMSO-treated cells): 0.971 and 0.957 and 1.07
COc1ccc(NC(=O)C2CCCN(c3ncnc4[nH]c(-c5ccc(NC6CCN(C)CC6)cc5C)cc34)C2)cc1 (stereo not drawn) — inhibition (NCI-H2228; cell growth or viability, MTT; 5 µg/mL, 72 h): 96%
O=C(NN1C(=O)c2ccccc2NC1c1ccc([N+](=O)[O-])o1)c1ccc([N+](=O)[O-])cc1 (stereo not drawn) — Emax (LDR; silenced CMV-GFP reporter derepression, qHTS): 113%
COc1c(C)c(OS(=O)(=O)c2ccccc2)c(C)c(O)c1C(=O)/C=C/c1ccccc1 — selectivity index (KKU-M213; SRB; baseline: normal over KKU-M213 IC50): 1.22
Cc1ncsc1-c1ccc(C(C)NC(=O)C2CC(O)CN2C(=O)C(NC(=O)CCCCCCCCCCN2CCCC(Nc3ncc(Cl)c(Nc4ccccc4S(=O)(=O)C(C)C)n3)C2)C(C)(C)C)cc1 (stereo not drawn) — log2 fold change (22Rv1; RNA-seq, item: NAV1; concentration not given; baseline: DMSO): -1.3
Cc1cc(NC2CCN(C)CC2)ccc1-c1cc2c(N3CCC[C@H](C(=O)N[C@H](C)c4ccccc4)C3)ncnc2[nH]1 — inhibition (NCI-H2228; cell growth or viability, MTT; 0.008 µg/mL, 72 h): 20.9%
Cn1ncc2cc(-c3cncc(Cl)c3N3CCC4(CCNC4=O)CC3)ccc21 — log2 fold change (LS174T; gene expression, microarray, item: ABCA1 mRNA; concentration not given, 4 h; baseline: untreated cells): 1.1
[BH3-][P+]1(c2ccccc2)CCCCC1 — necrotic cells (SW480; annexin V/PI flow cytometry; IC50, 72 h): 2.45%
CC(C)c1ccc(N(C)c2ccc3c(c2)OCC[C@H]3CNc2cnccc2C(=O)O)cc1 — IC50 (SCC-9; cell viability; 7 days): ≥ 10000 nM
CN1CCN(C(=O)c2ccc(-c3cc4c(N5CCC[C@H](C(=O)NCc6ccc(OC(F)(F)F)cc6)C5)ncnc4[nH]3)cc2)CC1 — inhibition (NCI-H2228; cell growth or viability, MTT; 0.008 µg/mL, 72 h): 50.1%
CC(=O)Oc1ccccc1C(=O)[Se]CC(=O)Nc1cccc(C(F)(F)F)c1 — GI50 (NCI60 renal subpanel; cell growth, inhibitor; five-dose): 1640 nM
COc1ccccc1-c1ccncc1C(=O)Nc1nnc(OCc2ccc(Cl)cc2)s1 — colony count (MDA-MB-231; 12 µM): 20 and 23

Some of these lines once more:
O=C(C[Se]C(=O)c1cc2ccccc2s1)Nc1cccc(C(F)(F)F)c1 — mean growth percent (NCI60 renal subpanel; cell growth; 10 µM, 48 h, one-dose): -78.5%
